Results pooled from the literature.
Parts stem from different laboratories: compare values within a part only.

Set 1
Target: RING finger protein unkempt homolog, zinc fingers 1-6, GST-SBP tag (UNK, Homo sapiens, UniProt Q9C0B0, residues 30-357)
Sequence of UniProt Q9C0B0 (30-357, looked up): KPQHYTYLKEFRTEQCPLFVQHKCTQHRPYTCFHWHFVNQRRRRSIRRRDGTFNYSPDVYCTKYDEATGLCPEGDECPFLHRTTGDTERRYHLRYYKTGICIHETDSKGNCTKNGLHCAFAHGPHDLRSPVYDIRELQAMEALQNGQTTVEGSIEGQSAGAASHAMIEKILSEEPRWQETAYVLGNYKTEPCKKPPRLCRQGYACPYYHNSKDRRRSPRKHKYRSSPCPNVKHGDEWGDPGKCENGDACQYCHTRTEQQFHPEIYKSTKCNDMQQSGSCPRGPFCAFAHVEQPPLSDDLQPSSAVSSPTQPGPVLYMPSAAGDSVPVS
Technique: RNA Bind-n-Seq
Form: RNA
Medium: in vitro
Concentration: not given
Setting: RNA with constant flanks, ends assumed
Relative to: input RNA pool
Direction: higher = stronger binding
Quantity: bound/input enrichment
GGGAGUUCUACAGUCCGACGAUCUCCAAAGUUGUCCGUGUUAGAGCAGAUUUGCUUGACGAGUUAAUUAAAUCAGGGCAGUUACCCGGCGUGAAAUUUAUAGCAGAGCUUGGUGUCCCACUGUCACAGGUUAAAAGCAUAUCACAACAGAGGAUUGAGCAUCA: 0.305 ratio
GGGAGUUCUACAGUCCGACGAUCCGAUGCCUAAGAUGGGGAGGAGGUUAUGAAGGACAGAAUCUGGCAAAGAUCCUCAAGGAUUCCGAGAUGAGUAAAGUGGUACAUAUGGAUCGAUGGUCUGUGGAGGUGAUACCUCAACAACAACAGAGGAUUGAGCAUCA: 0.215 ratio
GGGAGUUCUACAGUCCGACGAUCGGAGAUGGUCCUAUGUGUCGCCCAGAAAUUGUGUUACCAGGAGAAGACACACAUCCCUUCUCCGAGUUUAAAGGGUCACGACAUCCCUGCAUUACAAAGACUUUUUUUGGAGACGAUUUUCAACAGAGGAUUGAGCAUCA: 0.141 ratio
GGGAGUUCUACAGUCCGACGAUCCAUUUAGCGUCUUUUGGGAAAGCCAAACAGUUCAUGAAUUUUCUGGUUGGACUUUUAAAAUCCGGUGAGUUGAUAAACUUCUUGAUUUUCCUACAAAAGGGAAAGUUUGCAACUUUGACACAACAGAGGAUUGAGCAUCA: 0.234 ratio
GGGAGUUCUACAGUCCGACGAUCGCACAUGAUUUGGGAAUUACACUUUGUGACAUGGAUGAAUCUGCACUGACCCUUGGUACAACCGAUGUUUCUUAUCUGCCACAUUCAUCAGAAUACAGUGUUGGUCGAUGUAAGCACACACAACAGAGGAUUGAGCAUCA: 0.579 ratio
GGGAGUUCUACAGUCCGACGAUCUGGAGUGGAGGCUGAGCCCUCUUUCCUUGGCUUCCAUUUAAAAUGAACUUCACAACAUUCCCGCUAUUGAGGGAUGACAAAAGGAACCCAGAAAAGUGUGUAGGAAAUUACAAGCAGGUUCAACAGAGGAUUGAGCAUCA: 0.344 ratio
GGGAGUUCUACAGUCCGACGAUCGGAAGGGUGGUAUGUGUUUUCAUCUUUGGAAGAGAAAAUUAAAUUGGAAUUAUUUUCCCGAAAUUUUGAGAAGUCCACUCAAUUUUCCUGGGAGAGAGUGCUCACUGUGUGAAAGUACAUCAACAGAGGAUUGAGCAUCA: 0.472 ratio
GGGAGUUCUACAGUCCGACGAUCGCACCCCCUGGUCGCCCUGAGGCGCAGCCUCCUCCUCUCAGCUCUGAGCAUAAAGAGCCGGCCGCCGGGGACGCAGUGCCCGGGCCAAAGGAUGGCAGCGCCCCAGAGGUCCGAGGCGCUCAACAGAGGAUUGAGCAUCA: 0.101 ratio
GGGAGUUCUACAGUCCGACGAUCCGGAGUGUGCGGCUAGUCAGAGACAAAGACACAGACAAAUUUAAAGGGUUCUGCUAUGCCGAAUUUGAUGAGGUGGAUUCCCUGAAGGAGGCUCUGACUUAUGACGGUGCACUCUUGGGUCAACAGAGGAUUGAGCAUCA: 0.146 ratio
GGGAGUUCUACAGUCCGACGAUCAUGACUUCCCGCCUGACACCAUCAGUUACUCCGGUGUAUGCACCUGGGUUCCCUUCAGUUGCCGCUCCAAACUUCAGUUUAGGGGUAGAGCCAAAUUCAUUACAGACUCUGAAGCUAAUGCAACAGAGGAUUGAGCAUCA: 0.218 ratio
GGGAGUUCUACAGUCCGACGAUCCAUGGCUGUGCUGGUCGUUCUCCUGUUCUUUCUGGUGGCGGGUGCUUUAGGGAAUGAAUUCCGCAUAUUAAGAUCGCCAGGGUCUGUUGUUUUCCGAAAUGGAAAUUGGCCUAUACCAGGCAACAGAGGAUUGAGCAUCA: 0.286 ratio

Set 2
Target: Ras GTPase-activating protein-binding protein 1, full length (G3BP1, Homo sapiens, UniProt Q13283)
Sequence of UniProt Q13283 (whole entry, looked up): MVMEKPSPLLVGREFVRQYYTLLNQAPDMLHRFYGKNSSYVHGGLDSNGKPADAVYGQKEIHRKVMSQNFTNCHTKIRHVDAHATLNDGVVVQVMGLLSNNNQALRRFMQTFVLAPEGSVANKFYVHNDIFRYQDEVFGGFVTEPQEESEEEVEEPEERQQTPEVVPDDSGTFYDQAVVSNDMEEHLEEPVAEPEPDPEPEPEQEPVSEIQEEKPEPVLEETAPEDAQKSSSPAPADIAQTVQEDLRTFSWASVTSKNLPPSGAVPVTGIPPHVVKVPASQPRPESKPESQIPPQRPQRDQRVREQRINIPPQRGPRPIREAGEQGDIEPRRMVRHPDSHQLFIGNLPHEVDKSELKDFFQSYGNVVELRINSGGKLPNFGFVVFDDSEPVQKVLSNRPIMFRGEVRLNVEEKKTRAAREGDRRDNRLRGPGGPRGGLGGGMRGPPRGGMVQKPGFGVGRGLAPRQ
Technique: RNA Bind-n-Seq
Form: RNA
Medium: in vitro
Concentration: 200 nM
Setting: whole 134-nt RNA, ends assumed
Added: 150 mM KCl
Relative to: input library
Direction: higher = stronger binding
Quantity: log2 enrichment
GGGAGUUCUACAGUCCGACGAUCCUCAAGUCCUGUGCUACACAUCGUAUGUACCGAAUCGGGGAAGGAAGGGAAGGAAAGUAUUAUGUUACGCCGUUCGGAUCUGCACUUCCAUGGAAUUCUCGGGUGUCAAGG: -0.11
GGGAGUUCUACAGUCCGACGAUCCACAGACAACACGCACCCACACAGACACAGAGGGAAGGGGUUGGGAUGGGGACAGGGUGCACAGCAGGGCGGGGUAGGACCCCAACCCCUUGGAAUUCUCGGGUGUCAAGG: 1.89
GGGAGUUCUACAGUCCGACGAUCUGGCCCUUCCCCUGGAGCCAUGCUGGGCCCUAGCCCGGGUCCCUCGCCGGGCUCCGCCCACAGCAUGAUGGGGCCCAGCCCAGGGCCGCCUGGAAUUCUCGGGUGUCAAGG: 0.375
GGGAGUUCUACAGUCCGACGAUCGUCCUGUGCUACACAUCGUAUGUACCGAAUCGGGGAAAAAGGGGUUUGGGGAAAGGGGAAAGUAUUAUGUUACGCCGUUCGGAUCUGCACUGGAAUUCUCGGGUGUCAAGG: 0.6
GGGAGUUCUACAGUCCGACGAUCACCAUGCAGGUGGGCAUCUUUGGGAAGUGGGGCAAGGGGGGGAUAGGGAGGGCGGUAACACUUUGGGAACAGGUGGUCCCAGGUCGUUUCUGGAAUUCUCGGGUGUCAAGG: 1.28
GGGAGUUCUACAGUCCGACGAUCACCAUGCAGGUGGGCAUCUUUGGGAAGUGUGGCAAGGGGGGGAUAGGGAGGGGGGUAACACUUUGGGAACAGGUGGUCCCAGGUCGUUUCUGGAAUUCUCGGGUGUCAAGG: 1.53
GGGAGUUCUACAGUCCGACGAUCUCCUCAAGUCCUGUGCUACACAUCGUAUGUACCGAAUCGGUGGUGGGGUGGGAAAGUAUUAUGUUACGCCGUUCGGAUCUGCACUUCCAGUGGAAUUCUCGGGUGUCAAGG: 0.385
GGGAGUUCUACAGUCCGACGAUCUGGGAGGUGGAUUUUGUUUAUUUUUUUAGCUCAUUUCCAGGGGUGGGAAUUUUUUUUUAAUAUGUGGCAUGAAUAAAGUUGUUUUUGAAAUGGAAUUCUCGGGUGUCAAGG: 0.264
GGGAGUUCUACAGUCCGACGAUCCACAGACAACACGCACCCACACAGACACAGAAAAAAGGGGUUGGGAUGGGGACAGGGUGCACAGCAGGGCGGGGUAGGACCCCAGCCCCUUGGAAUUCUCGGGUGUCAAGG: 1.88
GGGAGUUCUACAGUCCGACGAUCGUCCUGUGCUACACAUCGUAUGUACCGAAUCGGUUUUUGGGUUUUUGGGGUUUUUGGGAAAGUAUUAUGUUACGCCGUUCGGAUCUGCACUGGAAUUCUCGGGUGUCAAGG: -0.691

Set 3
Target: RNA binding protein fox-1 homolog 2, RRM domain, GST-SBP tag (RBFOX2, Homo sapiens, UniProt O43251-10, residues 100-194)
Technique: RNA Bind-n-Seq
Form: RNA
Medium: in vitro
Concentration: 365 nM
Setting: natural RNA segment, single round, ends assumed
Relative to: no-protein control
Direction: higher = stronger binding
Quantity: RBNS enrichment (R)
Construct (chain): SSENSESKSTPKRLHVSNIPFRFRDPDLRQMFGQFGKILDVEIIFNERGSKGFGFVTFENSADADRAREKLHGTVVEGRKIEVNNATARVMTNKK
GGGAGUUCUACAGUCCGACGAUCCUGUCAUCAAGAAGCUAUCACAUUUUUGGUACCUCUAUAAAGCUAACCCUUCACAAAAGAAAAGAUCACCAAAAGGGGUUGUAUAUUUGAAAACAUUAUACUUGUAUCCAUGGAAUUCUCGGGUGCCAA: 0.355
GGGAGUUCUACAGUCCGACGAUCACCUCUUUGGGGACAAGAGGAUUACAUCUCAGGCCAGCAAGAUCAGCUGCUUGAAGCUCUGUGUAAGAGCACUGCACUGACGGUUUGGAGACCUGAGCCUGGGUCCUGACUGGAAUUCUCGGGUGCCAA: 0.51
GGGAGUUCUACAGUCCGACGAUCUAUGGGAAGGCUGCAAAGGCUGAGAAAUGCAAAGGCUCAUAUUUAUAAAUCCCACCCCCAGAGUGGGGAGGGUCAGGUGCCAGACCUGGACUAAACUGCACCAAGGAAACUGGAAUUCUCGGGUGCCAA: 1.36
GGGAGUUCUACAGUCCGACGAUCCAUUGAAGUGUUUGCUGCAGAGUUGAGGGAAACCCCCAGCCACCCUCCCGGAAUCCGAGAUAGGGUGGCACAUCUGUCCUGACAGACGAGGAGUGUAACUGAACCAGGAAUGGAAUUCUCGGGUGCCAA: 0.234
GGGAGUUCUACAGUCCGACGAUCUGGUCAUUGAGUUCUUAGUGUAGUUUGCUAGAUGAUUAUUAAGAUUCUUUUGUGUCUGACACUUGUGGUGAGUUGCUUUUGAAAUCUGUUGAGAUUUCCAUGUGAGAACUUGGAAUUCUCGGGUGCCAA: 0.919
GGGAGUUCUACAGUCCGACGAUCCCUGGACAGGCAGUCUAGGGGGUAUGGGAAUACACGGUGUGGUUGUUCAACUAUUUGCAAAGGUCAACCAAAUAGACCACAUGUUCGCAAAGUAUCAUCUGAGGAAAUUAUGGAAUUCUCGGGUGCCAA: 0.281
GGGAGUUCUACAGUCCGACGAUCCUUUCUCCUGUGGUCUCUUAAUCCAGUAAUUGUAUUACUGCCAUUAAAGGAUGCAGUUAUUUUAAAAGCUUGUGGGUCUGGUCUCUCCAGGCUGCCCCAGACCAUCCCUUUGGAAUUCUCGGGUGCCAA: 0.215
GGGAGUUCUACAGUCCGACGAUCAAUCCUACUUCUCCCCAACAUAGAAGUAGACAUUUCUCAUCCCAUUCUUUGUAAAUGUCCACACCCUACCGCAAAGUCUGGGGAGUCUUCUGGCUGGAAUGCUGUUCACGUGGAAUUCUCGGGUGCCAA: 0.379
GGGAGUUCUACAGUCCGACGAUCCCUGUAUUCCAGAAACUCACUUGAUUCUGUAUUGGUAAAUGCCUGGCUUCUUCACCAACUCCAUAGGUAACACAGCAAAGGAAAACCACAGAAGACAGAAGACAGGCAUCUGGAAUUCUCGGGUGCCAA: 0.364
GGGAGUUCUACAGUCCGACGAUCGCCAGCCAGCCACAUGCAGCUUUGCUGAUAAAUGGAUACCUUUUCACACCAUUUAUGAAAACAAAAUUUCAACUCUGUUGCCUGUUCUAUUUAAGAAAAAUUGCUGUUUCUGGAAUUCUCGGGUGCCAA: 0.551
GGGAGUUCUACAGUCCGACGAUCCGGGGAGGCCCUCACCUUCCAGAGAGGACAGACACAGAUUUCCUGCUGGGGGAGGGAGGAGUCCACGCAUCCUGAUGCUGCCUGGAAGCUUAUUUUCCCGUGGCCAGGACUGGAAUUCUCGGGUGCCAA: 0.344
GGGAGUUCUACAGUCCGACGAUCAAAUAGUACAUUGCAUUUUGAAGUUUUGGGUUUUGUCCUUCAUCUUUCCCUUUCCCUUCAAAUCUUUUAAUGGUAAGAAAGCAAGUGAAGCUUGGUGCAAGCUAAAAUUUUGGAAUUCUCGGGUGCCAA: 0.731

Set 4
Target: Sal-like protein 4, full length isoform A (SALL4, Homo sapiens, UniProt Q9UJQ4, residues 1-1053)
Sequence of UniProt Q9UJQ4 (whole entry, looked up): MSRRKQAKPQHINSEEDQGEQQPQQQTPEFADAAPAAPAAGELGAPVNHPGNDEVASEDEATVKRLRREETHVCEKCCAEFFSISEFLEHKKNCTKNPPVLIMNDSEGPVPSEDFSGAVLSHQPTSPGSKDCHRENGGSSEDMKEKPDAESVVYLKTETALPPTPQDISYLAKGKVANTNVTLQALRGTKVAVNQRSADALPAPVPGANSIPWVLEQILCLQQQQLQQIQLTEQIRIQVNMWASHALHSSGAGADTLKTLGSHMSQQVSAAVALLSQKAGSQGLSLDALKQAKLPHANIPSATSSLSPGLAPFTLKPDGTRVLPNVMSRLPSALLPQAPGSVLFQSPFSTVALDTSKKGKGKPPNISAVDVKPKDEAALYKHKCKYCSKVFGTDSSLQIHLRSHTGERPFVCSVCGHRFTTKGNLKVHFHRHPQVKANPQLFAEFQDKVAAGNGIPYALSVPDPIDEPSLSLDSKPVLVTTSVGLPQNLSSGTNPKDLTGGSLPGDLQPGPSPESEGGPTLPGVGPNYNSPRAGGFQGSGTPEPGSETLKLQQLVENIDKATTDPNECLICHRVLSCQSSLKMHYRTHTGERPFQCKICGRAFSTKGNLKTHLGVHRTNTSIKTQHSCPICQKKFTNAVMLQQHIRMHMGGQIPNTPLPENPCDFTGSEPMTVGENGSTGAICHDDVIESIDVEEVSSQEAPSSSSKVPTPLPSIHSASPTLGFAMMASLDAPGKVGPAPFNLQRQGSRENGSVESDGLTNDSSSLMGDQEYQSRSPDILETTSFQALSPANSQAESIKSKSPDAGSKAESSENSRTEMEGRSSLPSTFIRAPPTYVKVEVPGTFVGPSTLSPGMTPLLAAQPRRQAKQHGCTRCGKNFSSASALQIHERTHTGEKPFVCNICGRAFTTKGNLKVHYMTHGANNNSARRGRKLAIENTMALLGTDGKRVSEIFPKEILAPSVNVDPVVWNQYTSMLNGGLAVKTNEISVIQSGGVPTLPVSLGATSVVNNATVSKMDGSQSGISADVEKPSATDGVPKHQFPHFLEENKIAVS
Technique: universal PBM
Form: double-stranded DNA, one strand shown
Medium: in vitro
Concentration: 600 nM
Setting: 8-mer, flanks averaged, mean of replicates
Direction: higher = stronger binding
Quantity: E-score
ACAACCAT: 0.252
ACATTTAA: 0.296
CTTCAGGC: -0.2
ACGCTATG: 0.0295
ACATCAGT: -0.0387
GTCTCATA: 0.206
CGGTAAAG: -0.146
ACATTTTC: 0.212
ACCAGTTA: 0.13
ACCCCGGC: -0.358
AGTCTCAC: 0.0161
CCGGGAGC: -0.404
CAGGACTC: -0.297
ACCGGATG: -0.192
CGCCCACG: -0.312
CCGTCACC: -0.21
ATCTGGGC: -0.192
TAGAGCCA: -0.0665
CCTAATTA: 0.203
CCGGACTA: -0.188
CTCTGTCC: -0.177
CCGACACG: -0.295
GCTGCTGA: -0.196
TGCTGCCA: -0.107
CCGGGTGC: -0.356

For quick reference, copied from above (set 1):
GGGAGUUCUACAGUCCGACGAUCUGGAGUGGAGGCUGAGCCCUCUUUCCUUGGCUUCCAUUUAAAAUGAACUUCACAACAUUCCCGCUAUUGAGGGAUGACAAAAGGAACCCAGAAAAGUGUGUAGGAAAUUACAAGCAGGUUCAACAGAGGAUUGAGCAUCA: 0.344 ratio
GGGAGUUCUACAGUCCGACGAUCGGAAGGGUGGUAUGUGUUUUCAUCUUUGGAAGAGAAAAUUAAAUUGGAAUUAUUUUCCCGAAAUUUUGAGAAGUCCACUCAAUUUUCCUGGGAGAGAGUGCUCACUGUGUGAAAGUACAUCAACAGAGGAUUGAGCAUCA: 0.472 ratio
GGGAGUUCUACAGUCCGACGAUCGCACCCCCUGGUCGCCCUGAGGCGCAGCCUCCUCCUCUCAGCUCUGAGCAUAAAGAGCCGGCCGCCGGGGACGCAGUGCCCGGGCCAAAGGAUGGCAGCGCCCCAGAGGUCCGAGGCGCUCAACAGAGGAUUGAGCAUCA: 0.101 ratio
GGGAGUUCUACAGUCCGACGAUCCGGAGUGUGCGGCUAGUCAGAGACAAAGACACAGACAAAUUUAAAGGGUUCUGCUAUGCCGAAUUUGAUGAGGUGGAUUCCCUGAAGGAGGCUCUGACUUAUGACGGUGCACUCUUGGGUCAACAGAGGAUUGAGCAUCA: 0.146 ratio
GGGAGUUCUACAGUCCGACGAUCAUGACUUCCCGCCUGACACCAUCAGUUACUCCGGUGUAUGCACCUGGGUUCCCUUCAGUUGCCGCUCCAAACUUCAGUUUAGGGGUAGAGCCAAAUUCAUUACAGACUCUGAAGCUAAUGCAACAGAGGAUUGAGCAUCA: 0.218 ratio
